Assay results from different studies.
Every numbered part comes from another study and shows a few of its results, in no order. Positions count from the first letter of the parent shown.

Series 1 — target: CCNA2, cyclin fold, Cln2 fusion (human); technique: yeast growth competition, sequencing; medium: yeast; setting: strong parent motif; reference: not given; direction: higher = stronger binding
Parent: PKN2 docking peptide (human); VSAVQKLDFSDTM; partner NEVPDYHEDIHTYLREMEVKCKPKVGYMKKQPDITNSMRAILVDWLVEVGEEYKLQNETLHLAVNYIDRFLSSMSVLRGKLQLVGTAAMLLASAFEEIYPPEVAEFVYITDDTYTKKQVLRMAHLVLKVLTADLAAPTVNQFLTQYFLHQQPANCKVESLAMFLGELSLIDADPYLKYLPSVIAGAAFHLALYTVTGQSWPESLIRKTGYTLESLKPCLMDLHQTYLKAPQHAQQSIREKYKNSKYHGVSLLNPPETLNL
Variant	normalised enrichment score
F9S	0.394
D11E	1.85
L7N	-0.384
K6V	0.683
V4S	0.735
V1L	1.68
M13R	2.43
L7T	-0.105
K6W	0.366
S2E	0.0307
D8E	1.5
S10Q	0.571
F9E	-0.27

Series 2 — technique: RNA Bind-n-Seq; form: RNA; medium: in vitro; concentration: 200 nM; setting: whole 134-nt RNA, ends assumed; with: 150 mM LiCl; reference: input library; direction: higher = stronger binding; library: 7-deaza-guanosine replaces G
Target: Fragile X messenger ribonucleoprotein 1, C-terminal low-complexity region (Fmr1, Mus musculus, UniProt P35922)
Shared flanks, not repeated: GGGAGUUCUACAGUCCGACGAUC … UGGAAUUCUCGGGUGUCAAGG
Strand	log2 enrichment
CUCAAGUCCUGUGCUACACAUCGUAUGUACCGAAUCGGGAAGGGAAGGAAGGGAAAGUAUUAUGUUACGCCGUUCGGAUCUGCACUUCCA	-0.544
UCCUGUGCUACACAUCGUAUGUACCGAAUCGGGCCCCCCGGGCCCCCCGGGCCCCCCGGAAAGUAUUAUGUUACGCCGUUCGGAUCUGCA	0.185
UCCCCAGGGCCUGGCCUACUCAAUCUCUCCCACCUCAUCCUCUGGCAUGGACGCAGUCAGGGAGUCUGCUCCAAGCAGACACUGGUGGUC	0.322
AGUCCUGUGCUACACAUCGUAUGUACCGAAUCGGGGUGGGGUGGGGUUUUUUUGGGGAAAGUAUUAUGUUACGCCGUUCGGAUCUGCACU	-0.484
CUGUGCUACACAUCGUAUGUACCGAAUCGGGGAAAAAAAGGGGUUUGGGGUUUUUUUGGGGAAAGUAUUAUGUUACGCCGUUCGGAUCUG	-0.831
ACCAUGCAGGUGGGCAUCUUUGGGAAGUGGGGCAAGGGGGGGAUAGGGAGGGGGGUAACACUUUGGGAACAGGUGGUCCCAUGUCGUUUC	1.4
UCAAGUCCUGUGCUACACAUCGUAUGUACCGAAUCGGGGUUGGGGUUGGUUGGGGAAAGUAUUAUGUUACGCCGUUCGGAUCUGCACUUC	-0.482
AGUCCUGUGCUACACAUCGUAUGUACCGAAUCGGAAAAAGGGAAAAAGGGAAAAAGGGAAAGUAUUAUGUUACGCCGUUCGGAUCUGCAC	-0.867
GUCCUGUGCUACACAUCGUAUGUACCGAAUCGGCCCCCGGGGCCCCCGGCCCCCGGGGAAAGUAUUAUGUUACGCCGUUCGGAUCUGCAC	-2.86
AGUCCUGUGCUACACAUCGUAUGUACCGAAUCGGGAAAAAGGGAAAAAAAGGGAGGGAAAGUAUUAUGUUACGCCGUUCGGAUCUGCACU	-0.795

Series 3 — technique: protein binding microarray; form: double-stranded DNA, one strand shown; medium: in vitro; concentration: not given; reference: not given; direction: higher = stronger binding
Target: Histone acetyltransferase KAT6A, winged helix 2, GST fusion (KAT6A, Homo sapiens, UniProt Q92794, residues 85-181)
Setting: 8-mer, flanks averaged, mean of 2 arrays, mostly near background
Construct (chain): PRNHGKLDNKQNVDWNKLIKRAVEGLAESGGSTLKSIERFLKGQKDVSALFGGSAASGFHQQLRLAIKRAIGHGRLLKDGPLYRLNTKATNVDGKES
Strand	E-score
CCGGGGTA	-0.0589
AGGTCTAC	-0.0763
CGCTTACG	-0.105
ACATTAAG	-0.0399
GCCACAAA	0.176
CGCAGCAG	0.147
AATCGCGA	0.1
GAATGTGC	-0.0116
AGTACATG	-0.0855
ACGCAAGT	0.0606
CAGAACAC	-0.155
ACCCGGTG	-0.0614
ACCAACTA	-0.0753
ACGCAATA	-0.0369
GACCGTGC	0.0104
GTGCGAGA	0.0159

Mixed results
Molecule	target	assay	system	setting	how to read	measurement	value
PhoQ, residues 284 288 289 292 302 303 TAVSDG	PhoP, residues 12 14 15 18 19 LFHKL (Escherichia coli, UniProt P23836)	Sort-seq, item: YFP reporter	E. coli	PhoQ-PhoP variant library, with: 10 µM Mg2+	reference: high Mg2+ state, higher = stronger signaling	fold induction	2.78

For quick reference, copied from above (series 1):
Variant	normalised enrichment score
S10Q	0.571
M13R	2.43
V4S	0.735
F9S	0.394
L7T	-0.105
D8E	1.5
